# Measurements from different studies.
# Every numbered part comes from another study and shows a few of its results, in no order. Substitutions count along the parent as printed.

# Series 1
# Target: RING finger protein unkempt homolog, zinc fingers 1-6, GST-SBP tag (UNK, Homo sapiens, UniProt Q9C0B0, residues 30-357)
# Sequence of UniProt Q9C0B0 (30-357, looked up): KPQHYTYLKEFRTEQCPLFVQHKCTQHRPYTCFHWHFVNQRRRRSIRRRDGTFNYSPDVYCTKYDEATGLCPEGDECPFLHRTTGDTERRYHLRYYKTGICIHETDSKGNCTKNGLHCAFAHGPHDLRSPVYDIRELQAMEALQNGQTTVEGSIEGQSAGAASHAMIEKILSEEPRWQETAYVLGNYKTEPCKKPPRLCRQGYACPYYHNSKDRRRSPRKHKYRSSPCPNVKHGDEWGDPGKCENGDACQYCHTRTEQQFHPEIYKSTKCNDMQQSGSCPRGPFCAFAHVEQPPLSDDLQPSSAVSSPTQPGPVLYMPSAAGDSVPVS
# Method: RNA Bind-n-Seq
# Form: RNA
# Matrix: in vitro
# Concentration: not given
# Setting: RNA with constant flanks, human-mouse chimeric sites, ends assumed
# Relative to: input RNA pool
# Reading: higher = stronger binding
# Constant ends, left off below: GGGAGUUCUACAGUCCGACGAUC … CAACAGAGGAUUGAGCAUCA
Sequence,bound/input enrichment [ratio]
UUACCCGAGAACGAGGAUGAGCUGGAGAGCACCAACAGGCGCUACACCAAGAGGGACUGCAGCACUUUCCUCAGAACUAGUGAGACGGGCAUUGUGGACCAGGUCAUGGUCACUCUCAAC,0.111
GCUGGAUCUUCUAAGUACCAGUGGGACAUUAUGAAAUCCCUUGGGCUCUCUGAUGACGACAUAGUGAAGUUUUCUGAAGCAGAGCACUGGCUUGAUUAUUUCCCACCACUGGCCGUUCAG,0.135
GUAAUGGACGUUAAUACUGCUCUACAAGAGGUUCUGAAGACCGCCCUCAUCCACGAUGGCCUAGCACGUGGCAUACGCGAAGCUGCCAAAGCCUUAGACAAGCGCCAAGCCCAUCUGUGU,0.245
AGAGAAAUGAGAAAGAAUCUUACACAAGAUGAGAUGCAAAGAAUGUCUACUAGAGUCCUUUUGGCGACUCUUUCCAUUCCUAUUACUCCUGAGCGAACUGAUAUUGCUCGACUUUUGGAU,0.157
UUGUGCAAUGAUGCUUGAGAUGGUUUUUGCAGAUGCAGAAAUCGCUGCAAGGUAAUCACAAUAGAUAAAAGUGGUAUUUUAAACCUUUGAAAUAAAUGGAUGUAACUGUACCUUGGUACA,0.722
ACUCUUGACUCUUUCCAUCCUCUUCCUUUCCCUCUUGAUAUUCAAGGCCAUGAAUCCCAAAAUAACAAUCUAUCUUACUAGCACCCAAACAGAGGUGGAAUAAAUCCACCCCAGUGUCUC,0.981
AGAAUCUUGGGACUGUUUUACUUAAUUGGUCAUUGAUAGCUUAACAAACAUGGAGAUAAGAUUAGAAAUCUUGACAUCAACAGGUAUCAAGCAGAAAAAACCAUGGCCACGUGUCUCCUG,0.143

# Series 2
# Target: Centromere-binding protein 1, full length, N-terminal tag (CBF1, Saccharomyces cerevisiae, UniProt P17106, residues 1-351)
# Sequence of UniProt P17106 (whole entry, looked up): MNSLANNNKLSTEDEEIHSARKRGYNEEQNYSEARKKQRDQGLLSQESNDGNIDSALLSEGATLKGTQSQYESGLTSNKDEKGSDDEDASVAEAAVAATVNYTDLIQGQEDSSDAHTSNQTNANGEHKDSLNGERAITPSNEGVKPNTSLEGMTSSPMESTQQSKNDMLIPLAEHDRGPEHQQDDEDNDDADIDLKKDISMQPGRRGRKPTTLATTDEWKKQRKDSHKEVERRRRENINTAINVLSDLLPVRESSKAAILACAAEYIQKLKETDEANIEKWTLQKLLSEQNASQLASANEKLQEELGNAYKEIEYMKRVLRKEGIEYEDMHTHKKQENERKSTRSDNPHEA
# Method: protein-binding microarray
# Form: double-stranded DNA, one strand shown
# Matrix: in vitro
# Concentration: 0.8 µM
# Setting: whole 60-bp probe, no competitor
# Reading: higher = stronger binding
# Constant ends, left off below: … GTCTTGATTCGCTTGACGCTGCTG
Sequence,fluorescence intensity [a.u.]
GAATTATTTCATTGTCACATGCTTTTTGACTCATAG,3110
CCTAACTACTATAATCATCACATATAGCTTCGTACA,500
GAATAAACGGCAACCTGCGTGATAAAAACTATCTAG,547
GAAGCACCCCCAATCCACGTGTGTTTTATACGCTAG,1390
CCTAACTACTATATTCTGATGTTATAGCTTCGTACA,523
CTAGGGCGCAACAAACACCTGATGTGACTCCTATTC,702
CTATGTTTTCGTTATCGCGTGGCACGATATCATTTC,1300
CTAAAAATGATAGGTTACGTGCTATATCCGGAATTC,536
GAATTGGAGCACTCTCATGACACTAAATCAACATAG,607
GAATAATTTCCGCCCCACGTGCTGGAAATAACATAG,9480
CTAAACAGACAACAACACCTGCTTCATCAGCTGTTC,602
GAACAGTCGAAGAATCTCCTGTTTCATAAACATTAG,489
CTACTTTTTATTCATGATGTTTCGAAGAAGAGATTC,587
GAATTTACAAAAGTCCGGGTGACATTACATACATAG,510
GAAATAGCGTATAGTAGGCACGTGGTAGTCCACTAG,5000

# Series 3
# Target: CCNA2, cyclin fold, Cln2 fusion (human)
# Method: yeast growth competition, sequencing
# Matrix: yeast
# Setting: strong parent motif
# Relative to: not given
# Reading: higher = stronger binding
# Parent: E2F1 docking peptide (human); PPVKRRLDFETDH; partner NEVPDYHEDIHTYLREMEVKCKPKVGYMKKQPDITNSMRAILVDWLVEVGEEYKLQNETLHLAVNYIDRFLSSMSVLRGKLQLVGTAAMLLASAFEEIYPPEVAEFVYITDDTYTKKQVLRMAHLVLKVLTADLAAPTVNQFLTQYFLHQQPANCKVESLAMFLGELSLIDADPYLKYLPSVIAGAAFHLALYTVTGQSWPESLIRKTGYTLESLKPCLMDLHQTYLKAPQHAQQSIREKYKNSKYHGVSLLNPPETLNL
Substitution,normalised enrichment score
R6L,4.07
F9I,1.69
R6H,5.21
P2S,6.35
D12M,6.13
D12W,6.15
L7G,-0.0505
D8M,6.17
P2W,5.83
R6G,4.17
R6V,5.25
R6A,5.46
P2V,6.42
R5I,3.41
R5K,5.93
D12S,6.4
D8L,5.75

# Series 4
# Target: Histone acetyltransferase KAT6A, winged helix 2, GST fusion (KAT6A, Homo sapiens, UniProt Q92794, residues 85-181)
# Method: protein binding microarray
# Form: double-stranded DNA, one strand shown
# Matrix: in vitro
# Concentration: not given
# Setting: 8-mer, flanks averaged, mean of 2 arrays, mostly near background
# Relative to: not given
# Reading: higher = stronger binding
# Residues (chain): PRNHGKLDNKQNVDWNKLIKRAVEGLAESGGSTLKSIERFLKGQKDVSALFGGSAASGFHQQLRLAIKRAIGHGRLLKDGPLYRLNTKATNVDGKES
Sequence,E-score
AATTCTAT,-0.0601
AACCTGTC,-0.179
AGTTCCCG,0.0521
ATCCGCGC,0.125
ACGAGGCA,-0.0216
AAGCTTCA,-0.0558
ATGGCTTG,-0.131
ATATTATG,0.0835
AAAGGGAG,-0.0488
GAAGGGTA,-0.0462
TAGGCAGA,0.19
AAAGTCCC,-0.0702
ATTTACAG,0.087
AAATACGT,-0.224
ACGCCGGA,0.155
ATTGAATC,-0.151
ACCCTCAA,0.00587
ATCAAAAC,0.151
GAACCTTA,0.135
ATCGAAAA,0.176
GAAAGTCA,-0.118
AGCCAACT,-0.0396
AAACGCGA,-0.149
AGTGCACA,-0.0347
CGGAACCG,-0.022

# Series 5
# Target: Ras GTPase-activating protein-binding protein 1, full length (G3BP1, Homo sapiens, UniProt Q13283)
# Sequence of UniProt Q13283 (whole entry, looked up): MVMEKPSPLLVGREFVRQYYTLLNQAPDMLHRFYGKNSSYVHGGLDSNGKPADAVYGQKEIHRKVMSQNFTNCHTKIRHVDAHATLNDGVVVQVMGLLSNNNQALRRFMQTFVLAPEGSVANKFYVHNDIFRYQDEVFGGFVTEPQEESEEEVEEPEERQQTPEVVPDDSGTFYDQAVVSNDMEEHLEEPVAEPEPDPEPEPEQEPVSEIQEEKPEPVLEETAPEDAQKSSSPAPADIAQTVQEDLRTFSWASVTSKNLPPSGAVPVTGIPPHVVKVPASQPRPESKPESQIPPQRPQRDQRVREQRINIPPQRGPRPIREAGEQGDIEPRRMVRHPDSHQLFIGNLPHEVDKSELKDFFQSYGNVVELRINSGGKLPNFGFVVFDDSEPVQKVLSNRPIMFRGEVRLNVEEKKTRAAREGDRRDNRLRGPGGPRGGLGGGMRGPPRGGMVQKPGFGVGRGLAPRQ
# Method: RNA Bind-n-Seq
# Form: RNA
# Matrix: in vitro
# Concentration: 200 nM
# Setting: whole 134-nt RNA, ends assumed
# With: 150 mM LiCl
# Relative to: input library
# Reading: higher = stronger binding
# Each molecule: 7-deaza-guanosine replaces G
# Constant ends, left off below: GGGAGUUCUACAGUCCGACGAUC … UGGAAUUCUCGGGUGUCAAGG
Sequence,log2 enrichment
AAGUCGCGUGUCUAGGUGAGUCGCGGUGGGUCCUCGCUUGCAGUUCAGCGACCACGGUGGGUACCGUUUUUGCGAGGAUUGUUUGUCCCC,0.356
CAAGUCCUGUGCUACACAUCGUAUGUACCGAAUCGGAGGAAAAAGGAAAAAAAGGAAAGUAUUAUGUUACGCCGUUCGGAUCUGCACUUC,-0.114
AAGUCCUGUGCUACACAUCGUAUGUACCGAAUCGGGAAAAGGGAAAAGGAAAAGGGAAAGUAUUAUGUUACGCCGUUCGGAUCUGCACUU,-0.133
UGGGAGGUGGAUUUUGUUUAUUUUUUUAGCUCAUUUCCAGGGGUGGGAAUUUUUUUUUAAUAUGUGUCAUGAAUAAAGUUGUUUUUUAAA,0.116
CGGUCAGACUUUGUGUUACAUAAAUUAACACUGUUCUCAGGUAAUGAGAGAUCCAAACACCAAGCGCUCCAGGGGCUUUGGGUUUGUCAC,-1.22
GCAGGAAGUAAAAACAAAUGGAAAUGCUUCCGAUAGUGGCAGGGGUGGGGGUUGCUAAGGAAAGGGUGGGAUGGGAGUGGGUAAAGAGUU,0.196
GUCCUGUGCUACACAUCGUAUGUACCGAAUCGGGAAAAAAAGGGUUUGGGUUUUUGGGAAAGUAUUAUGUUACGCCGUUCGGAUCUGCAC,-1.44
CCUGUGCUACACAUCGUAUGUACCGAAUCGGGGAAAAAAAGGGGUUUUUGGGGUUUGGGGAAAGUAUUAUGUUACGCCGUUCGGAUCUGC,-1.16

# Series 6
# Target: RNA binding protein fox-1 homolog 2, RRM domain, GST-SBP tag (RBFOX2, Homo sapiens, UniProt O43251-10, residues 100-194)
# Method: RNA Bind-n-Seq
# Form: RNA
# Matrix: in vitro
# Concentration: 365 nM
# Setting: natural RNA segment, single round, ends assumed
# Relative to: no-protein control
# Reading: higher = stronger binding
# Constant ends, left off below: GGGAGUUCUACAGUCCGACGAUC … UGGAAUUCUCGGGUGCCAA
# Target sequence (chain): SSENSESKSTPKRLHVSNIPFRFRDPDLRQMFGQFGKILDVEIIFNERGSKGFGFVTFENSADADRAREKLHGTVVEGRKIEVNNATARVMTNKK
Sequence,RBNS enrichment (R)
UUCGGUGUGCACCAGGGUUGACCCCAGAGGAUUGCUGCCCCAUCAGUGCUCCCUCACAUGUCAGUACCUUCAAACUAGGGCCAAGCCCAGCACUGCUUGAGGAAAACAAG,0.593
CUCAGAAACGCGGCCAGAAGACAAGCAGGGAAGUGAAAGGUCCCAGGCACACACCCUGCCCAUUGCAGGUGGCUCUUACAGCUCUCUGGUGCCAGCACGGGAUCCCUGAA,0.239
AAGAUCUGGAACUAACGCCAGUAGCAUGUGGAUGCCAUGGAGACUGGAAGACCAUUCCAACUUGGACGCGUUACCAUGAGAGCAUAUCCUAUCCAACCGUACUAACGUGG,8.06
AUGCAUCAAACUGGAACCCCUACCUCAUAUUUCCUGCUCCAGGAAGGUUGAGGUUGAAAAAAAAGAAAAAGAGUGAAAUAGAGUAUUUUAUUUGUAUUUAAAAUAACUAU,0.705
GAUGGAACACUUCCAGUGAUGGUAAGAGAUCUGUUAUGAAACGAAACACCCCCCGUGUUAAUAACUUGGUCUGAAAUCUGUUUUUAUGAGCCGGGCCCCCUGUGCCUCUA,0.334
UUACCAUUACAUAGUAAUUUUGAUUCUGAAUUUCACAUUAAAUUAUUUGAGUUUAUACAGACCUAAAUUUUAAAAUCUGUACAUAUAUUAUUUUGAUGUAUUAAGAUGAA,0.413
UGGGAGUGGGGCCAGCCGUGGACAGCUGAGGUUGGGGUCAAUGCCUCCUGGGCACCCUUGCCUCGCCCCAGACCGGCCCGUCCAGUCCCCAUCACACCUCGGCGGCCUUU,0.232
AAGGCUCUCACACUUCUUCUGUGAAGCGUGGGCUUCAUUUCCAUGGCCCUGAGGCCCAGAGAGACAGCUGUCCACUUACCGGCAGGGUAGUCAUAGACAUAGAUACUGCA,0.645
AGGGUAUCUUUUUAUAUCACAGCCUAGGACUCUUCCAUCUUAUAAUUACAAGCUGACAGUGUACAAUGUUCCAACAGAAAUAUUAUCAUAACAUGCCUUUUUUGUAUCAA,0.373
GUGUCUGACGCGGCCACCUCUUUCUGGAGGGGCUGAGGACAGAUGUGCCUGCUUGUGGAGACCAGGCUGGGCCUAAGCGAAGGGUCAUCGCAGCCCCAGCCCGGAGCGUG,0.86
UAAAAAUCAGUAUGUGUUUAGUUUUAGUGUACUGAAGGGUAAACAUGGUUUUAUUUUAUUUUACCAUAUUAUUUUGUGUUGUUUUAUUUCUAUUGUGCUGUAAGUUGAUG,1.52
CCACCUGUUUUUCUGUGCUCCAGCUGGGCAGUGGGCUCCCCAUGUAGAGCUGAGCCUCUCCACUUCAGGGUGUGGCAUCAUGGCUCAGAUGUCAUUUUGAGCUAAAACCC,0.364

# Repeated from above (series 2):
Sequence,fluorescence intensity [a.u.]
CCTAACTACTATATTCTGATGTTATAGCTTCGTACA,523
GAATTATTTCATTGTCACATGCTTTTTGACTCATAG,3110
GAAGCACCCCCAATCCACGTGTGTTTTATACGCTAG,1390
GAATTTACAAAAGTCCGGGTGACATTACATACATAG,510
CTATGTTTTCGTTATCGCGTGGCACGATATCATTTC,1300
GAAATAGCGTATAGTAGGCACGTGGTAGTCCACTAG,5000
CTACTTTTTATTCATGATGTTTCGAAGAAGAGATTC,587
GAACAGTCGAAGAATCTCCTGTTTCATAAACATTAG,489
CTAAACAGACAACAACACCTGCTTCATCAGCTGTTC,602
GAATAATTTCCGCCCCACGTGCTGGAAATAACATAG,9480
CTAGGGCGCAACAAACACCTGATGTGACTCCTATTC,702
GAATTGGAGCACTCTCATGACACTAAATCAACATAG,607
CCTAACTACTATAATCATCACATATAGCTTCGTACA,500
